Experimental data gathered from unrelated publications.
A part holds a random share of what one study measured.

Study 1 — read-out: enzyme activity; action: inhibitor; concentration: 20 µM
Target: Replicase polyprotein 1ab, main protease (rep, Severe acute respiratory syndrome coronavirus 2, UniProt P0DTD1)
SMILES | inhibition [%]
COC(=O)[C@H](CCSC)NC(=O)c1ccc(NC[C@@H](N)CS)cc1-c1ccccc1 | 83
CC[C@H](CO)Nc1nc(NCc2ccc(-c3ccccn3)cc2)c2ncn(C(C)C)c2n1 | 1.59
Cc1cc(-c2ccc(/C=C3/SC(Nc4ccc(Cl)c(C(=O)O)c4)=NC3=O)o2)c([N+](=O)[O-])cc1C | 73.3

Study 2 — method: RNAcompete; form: RNA; matrix: in vitro; concentration: 20 nM; notes: 7-mer, probes averaged, single round; baseline: mean of 7-mers; reading: higher = stronger binding
Target: PABPC1L2, full length, GST fusion (mouse, UniProt A0ABA7IW68)
Construct (chain): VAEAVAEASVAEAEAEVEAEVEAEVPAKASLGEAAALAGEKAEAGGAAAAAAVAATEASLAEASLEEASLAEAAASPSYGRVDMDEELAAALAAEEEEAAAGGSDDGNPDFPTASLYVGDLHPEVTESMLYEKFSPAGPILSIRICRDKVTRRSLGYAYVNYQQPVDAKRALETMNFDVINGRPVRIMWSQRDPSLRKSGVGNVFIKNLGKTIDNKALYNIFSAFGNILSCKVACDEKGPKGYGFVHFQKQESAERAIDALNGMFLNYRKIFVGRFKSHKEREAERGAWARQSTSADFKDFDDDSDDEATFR
Oligonucleotide | 7-mer Z-score
UGGACCC | 0.0116
AGUGCGG | 0.245
GUUAGAA | 0.311
AUAAAGC | 1.74
CAAUUUG | -0.224
GAAGAUC | 0.129
ACGUAAC | -0.186
CAGCCCA | -0.242

Study 3 — method: universal PBM; form: double-stranded DNA, one strand shown; matrix: in vitro; concentration: 600 nM; reading: higher = stronger binding
Target: Sal-like protein 4, full length isoform A (SALL4, Homo sapiens, UniProt Q9UJQ4, residues 1-1053)
UniProt Q9UJQ4, sequence (whole entry, looked up): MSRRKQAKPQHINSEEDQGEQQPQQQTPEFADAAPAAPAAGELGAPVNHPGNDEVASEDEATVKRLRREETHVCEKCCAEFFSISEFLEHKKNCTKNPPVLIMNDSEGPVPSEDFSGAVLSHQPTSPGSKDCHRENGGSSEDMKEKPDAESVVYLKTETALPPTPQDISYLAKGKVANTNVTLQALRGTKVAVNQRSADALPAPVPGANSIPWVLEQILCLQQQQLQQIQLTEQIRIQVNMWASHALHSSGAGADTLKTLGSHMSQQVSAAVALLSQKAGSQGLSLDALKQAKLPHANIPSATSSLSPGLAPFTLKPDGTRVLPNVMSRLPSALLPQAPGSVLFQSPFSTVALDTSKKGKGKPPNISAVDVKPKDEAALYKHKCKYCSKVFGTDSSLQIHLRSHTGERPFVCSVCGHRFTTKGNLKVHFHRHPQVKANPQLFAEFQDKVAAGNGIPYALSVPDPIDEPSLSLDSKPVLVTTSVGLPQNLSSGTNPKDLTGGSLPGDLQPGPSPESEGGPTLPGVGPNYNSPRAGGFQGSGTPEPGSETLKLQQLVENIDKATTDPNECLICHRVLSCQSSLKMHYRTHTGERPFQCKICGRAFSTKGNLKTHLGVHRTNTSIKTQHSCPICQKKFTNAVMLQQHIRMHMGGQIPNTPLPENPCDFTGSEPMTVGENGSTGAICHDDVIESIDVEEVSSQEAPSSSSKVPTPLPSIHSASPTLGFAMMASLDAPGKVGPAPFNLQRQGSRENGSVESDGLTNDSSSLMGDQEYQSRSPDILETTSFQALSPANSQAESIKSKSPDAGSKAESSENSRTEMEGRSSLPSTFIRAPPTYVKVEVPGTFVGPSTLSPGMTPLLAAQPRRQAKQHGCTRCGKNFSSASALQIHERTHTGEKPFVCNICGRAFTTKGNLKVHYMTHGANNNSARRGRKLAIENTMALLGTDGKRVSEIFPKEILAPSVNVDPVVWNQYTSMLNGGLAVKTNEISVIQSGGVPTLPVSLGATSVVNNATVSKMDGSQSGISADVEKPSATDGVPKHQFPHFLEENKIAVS
Notes: 8-mer, flanks averaged, mean of replicates
Oligonucleotide | E-score
GAAGATGA | 0.179
ATCCATAG | 0.0405
ATTTCGAG | 0.163
CCCAACCG | -0.287
AGGAGCCC | -0.285
CTACTTTC | 0.0345
CCCAACAA | -0.0636
AAGCCGGC | -0.376

Mixed results
Substance | tested on | assay | conditions | scale | quantity | value
Tyloxapol | HEK-293T/ACE2 |  | concentration not given | baseline: vehicle | nuclei number | 98.6%
(-)-epicatechin gallate | Replicase polyprotein 1ab, nsp13 helicase (rep, Severe acute respiratory syndrome coronavirus 2, UniProt P0DTD1) | helicase activity, inhibitor | with DTT |  | IC50 | 910 nM

Excerpt of the above (study 2):
Oligonucleotide | 7-mer Z-score
GAAGAUC | 0.129
